{"data": "Results gathered from unrelated publications", "SGK1": "Serine/threonine-protein kinase Sgk1 (SGK1, Homo sapiens, UniProt O00141)", "SGK1 S422D": "Serine/threonine-protein kinase Sgk1 (SGK1, Homo sapiens, UniProt O00141, S422D)", "note": "Compare with care: the assays were run in different laboratories. “And” joins repeats or separate records; there may be more than shown.", "sequence of UniProt O00141 (whole entry, unmodified, looked up)": "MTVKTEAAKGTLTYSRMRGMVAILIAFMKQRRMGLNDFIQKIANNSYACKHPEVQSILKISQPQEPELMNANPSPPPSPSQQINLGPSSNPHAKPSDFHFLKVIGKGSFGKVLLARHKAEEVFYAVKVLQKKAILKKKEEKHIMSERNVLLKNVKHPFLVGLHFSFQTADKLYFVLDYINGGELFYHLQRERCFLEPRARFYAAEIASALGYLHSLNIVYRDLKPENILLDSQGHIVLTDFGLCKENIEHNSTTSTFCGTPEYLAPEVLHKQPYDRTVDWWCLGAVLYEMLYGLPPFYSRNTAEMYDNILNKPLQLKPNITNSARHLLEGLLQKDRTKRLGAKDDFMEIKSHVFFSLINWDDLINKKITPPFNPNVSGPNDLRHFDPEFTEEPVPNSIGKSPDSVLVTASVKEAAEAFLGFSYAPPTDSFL"}
{"SMILES": "CCn1cc(C(=O)O)c(=O)c2c(N)c(F)c(NC3CCCCC3)cc21", "target": "SGK1", "test": "kinase activity", "setting": "0.1 µM, added: ATP at Km", "endpoint": "inhibition", "value": "1.6%"}
{"SMILES": "Cc1ccc(C(=O)Nc2ccc(CN3CCN(C)CC3)c(C(F)(F)F)c2)cc1C#Cc1cnc2cccnn12", "target": "SGK1", "test": "target engagement, NanoBRET", "system": "human cells", "endpoint": "Hill slope", "value": 1.96}
{"SMILES": "O=C=[N][Ru-4]123([n]4c5ccc(O)cc5c5c6c(c7cc(F)c[n+]1c7c54)C(=O)NC6=O)[S+]1CC[S+]2CC[S+]3CC1 (stereo not drawn)", "target": "SGK1", "test": "enzyme activity", "setting": "100 nM, human enzyme, added: 10 µM ATP", "scale": "baseline: untreated", "endpoint": "remaining activity", "value": "82%"}
{"SMILES": "Cc1[nH]nc2c1N=C(c1ccccc1Cl)c1cnc(N3CCOCC3)cc1N2", "target": "SGK1", "test": "enzyme activity, inhibitor", "setting": "0.5 µM", "endpoint": "inhibition", "value": "18.1%"}
{"SMILES": "CN1CC[C@@H](COc2cnc(C#N)cc2-c2ccn3nc(NC(=O)C4CC4)cc3c2)C1", "target": "SGK1", "test": "enzyme activity, inhibitor", "setting": "1 µM", "endpoint": "inhibition", "value": "-4%"}
{"SMILES": "Cc1cccc(-c2ccc3nc(NC(=O)C4CCCO4)nn3c2)c1 (stereo not drawn)", "target": "SGK1 S422D", "test": "enzyme activity, Dundee kinase panel", "setting": "10 µM", "endpoint": "remaining activity", "value": "103%"}
{"SMILES": "CNC(=O)C[C@H](Cc1ccc(C#N)cc1)NC(=O)c1cc(-c2ccc(CN[C@H](C)c3ccc(C)cc3)o2)ccc1Cl", "target": "SGK1", "test": "enzyme activity, inhibitor", "setting": "1 µM", "endpoint": "activity vs control", "value": "104%"}
{"SMILES": "COc1cc(Nc2nc(C)cc(-c3cnn4nc(OC)ccc34)n2)cc(C(F)(F)F)c1", "target": "SGK1", "test": "binding, competition with immobilised ligand", "setting": "1 µM", "endpoint": "remaining binding", "value": "94%"}
{"SMILES": "C=CC(=O)N1CCc2ccc(-n3c(=O)ccc4cnc5ccc(-c6cnn(C)c6)cc5c43)cc21", "target": "SGK1", "test": "KINOMEscan", "setting": "1 µM", "scale": "baseline: DMSO control", "endpoint": "remaining binding", "value": "100%"}
{"SMILES": "C=CC(=O)Nc1cccc(-c2cnc3[nH]cc(C(=O)NC(C)(C)C)c3n2)c1", "target": "SGK1", "test": "kinase activity", "setting": "0.1 µM", "endpoint": "inhibition", "value": "5% and 6%"}
{"SMILES": "O=c1c(-c2ccc(Cl)c(CN3CCOCC3)c2)coc2cc(O)ccc12", "target": "SGK1", "test": "enzyme activity, inhibitor", "setting": "1 µM", "endpoint": "remaining activity", "value": "113%"}
{"SMILES": "Cc1cccc(-c2ccc3nc(NC(=O)C4CCOCC4)nn3c2)c1", "target": "SGK1 S422D", "test": "enzyme activity, Dundee kinase panel", "setting": "10 µM", "endpoint": "remaining activity", "value": "100%"}
{"SMILES": "O=C(O)c1ccc(-c2n[nH]c(=O)o2)cc1", "target": "SGK1 S422D", "setting": "10 µM", "endpoint": "inhibition", "value": "49.1%"}
{"SMILES": "NC(=O)C[C@H]1CCc2sc3ncnc(O[C@H]4CC[C@H](N5CCOCC5)CC4)c3c21", "target": "SGK1", "test": "enzyme activity, inhibitor", "setting": "10 µM", "endpoint": "inhibition", "value": "2%"}
{"SMILES": "Cc1cccc(O[C@H]2CCC[C@@H](C(C)CNCc3ccncc3)C2)c1 (relative stereo)", "target": "SGK1", "test": "enzyme activity, inhibitor", "setting": "10 µM", "endpoint": "inhibition", "value": "-24%"}
{"SMILES": "COc1ccc(NC(=O)Nc2ccc3c(c2)C(=O)N(C(C)CO)CC(C)C(CN(C)Cc2ccc4c(c2)OCO4)O3)cc1 (stereo not drawn)", "target": "SGK1", "test": "kinase activity, KinaseProfiler", "setting": "0.03 µM, species human", "scale": "baseline: control", "endpoint": "remaining activity", "value": "99%"}
{"SMILES": "COc1cc(-n2cc3cc(F)cc(C(N)=O)c3n2)cc(Cl)c1C1CC(O)(CCO)Cc2ccccc21 (stereo not drawn)", "target": "SGK1", "test": "enzyme activity, inhibitor", "setting": "10 µM", "endpoint": "inhibition", "value": "1.81%"}
{"SMILES": "O=C(Cc1ccc(OCc2ccccc2)cc1)NC1(C(=O)O)CCN(C(=O)c2ccc(-c3cccc(Cl)c3)cc2)CC1", "target": "SGK1", "test": "enzyme activity, inhibitor", "setting": "10 µM", "endpoint": "activity vs control", "value": "114%"}
{"SMILES": "Nc1ncc2c(n1)-c1c([nH]c3ccc(C4=CCOCC4)cc13)CCC2", "target": "SGK1", "test": "binding, competition with immobilised ligand", "setting": "1 µM", "endpoint": "remaining binding", "value": "63%"}
{"SMILES": "CNC(=O)C1CCN(c2cc(C)c(F)cc2NC(=O)c2ccc(-c3cc(O)ccc3C)c(C)c2)CC1", "target": "SGK1", "test": "binding, competition with immobilised ligand", "setting": "1 µM", "endpoint": "remaining binding", "value": "77%"}
{"SMILES": "CN1CCN(Cc2ccc(-c3ccc(CO[C@H]4CCC[C@@H]4NC(=O)c4cc(-c5cnn(C)c5)cnc4N)cc3)cc2)CC1", "target": "SGK1", "test": "enzyme activity, inhibitor", "setting": "0.1 µM", "endpoint": "inhibition", "value": "2%"}
{"note": "Repeated from above:"}
{"SMILES": "CNC(=O)C[C@H](Cc1ccc(C#N)cc1)NC(=O)c1cc(-c2ccc(CN[C@H](C)c3ccc(C)cc3)o2)ccc1Cl", "target": "SGK1", "test": "enzyme activity, inhibitor", "setting": "1 µM", "endpoint": "activity vs control", "value": "104%"}
